# Measured values gathered from unrelated publications.
# Each numbered part is a random draw from the data of one study; scales do not carry over between parts. Positions count from the first letter of the parent shown.

# Sample 1
# Target: Histone acetyltransferase KAT6A, winged helix 2, GST fusion (KAT6A, Homo sapiens, UniProt Q92794, residues 85-181)
# Technique: protein binding microarray
# Molecule type: double-stranded DNA, one strand shown
# Sample: in vitro
# Tested at: not given
# Setting: 8-mer, flanks averaged, mean of 2 arrays, mostly near background
# Baseline: not given
# Direction: higher = stronger binding
# Residues (chain): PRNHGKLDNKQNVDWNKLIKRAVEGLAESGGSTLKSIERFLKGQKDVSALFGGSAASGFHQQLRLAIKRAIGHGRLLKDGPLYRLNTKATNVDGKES
Strand,E-score
CCTCAAGA,-0.0709
AATCTGAA,-0.0541
CCCCCGCG,0.249
TAGCGTAA,-0.0345
AGACCCGG,0.0477
TGAACGAA,0.00839
CATTCTGG,-0.0751
CGGCTCCA,0.111
GACAACTA,-0.0784
CGACAGTC,-0.0965
AGCGGGGC,0.193
CCTGTTTA,-0.16
CAGTTCGC,0.0292
CACGGGAC,0.11
CGCCTCAG,0.0169
ACTTGTGA,-0.113
CAATCCCG,0.194

# Sample 2
# Target: CCNE2, cyclin fold, Cln2 fusion (human)
# Technique: yeast growth competition, sequencing
# Sample: yeast
# Setting: weak parent motif
# Baseline: not given
# Direction: higher = stronger binding
# Parent: ITGB3BP docking peptide (human); MPVKRSLKLDGLL; partner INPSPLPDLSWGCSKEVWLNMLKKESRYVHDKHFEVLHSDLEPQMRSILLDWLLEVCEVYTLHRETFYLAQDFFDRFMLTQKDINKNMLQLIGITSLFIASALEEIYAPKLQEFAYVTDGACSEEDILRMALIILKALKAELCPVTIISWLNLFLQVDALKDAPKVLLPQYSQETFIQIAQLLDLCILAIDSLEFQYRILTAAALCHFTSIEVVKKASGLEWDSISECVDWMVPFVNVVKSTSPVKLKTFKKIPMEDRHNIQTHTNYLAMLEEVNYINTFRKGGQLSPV
Substitution,normalised enrichment score
S6A,0.324
R5K,0.253
P2A,0.729
R5K L9F,0.598
L13A,1.2
M1A,-0.0603
D10A,1.25
G11A,1.23
R5A,-0.168
R5A L7A,0.378

# Sample 3
# Target: RNA binding protein fox-1 homolog 2, RRM domain, GST-SBP tag (RBFOX2, Homo sapiens, UniProt O43251-10, residues 100-194)
# Technique: RNA Bind-n-Seq
# Molecule type: RNA
# Sample: in vitro
# Tested at: 365 nM
# Setting: natural RNA segment, single round, ends assumed
# Baseline: no-protein control
# Direction: higher = stronger binding
# Constant ends, left off below: GGGAGUUCUACAGUCCGACGAUC … UGGAAUUCUCGGGUGCCAA
# Construct (chain): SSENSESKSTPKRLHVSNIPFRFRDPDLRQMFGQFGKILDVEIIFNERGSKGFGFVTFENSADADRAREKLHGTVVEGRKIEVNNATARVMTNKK
Strand,RBNS enrichment (R)
ACACCAGAUCAUUUUUAUACAGGAUGUAGAGUACUGAUGCGGUUGAUCUUUUCCUUCAAGAACAUUCUUUUCUAUAGAAAAAUGAUUCCCUGUGAUCUUCUGGAAGCUCC,0.505
GAGCUGUGUAUAGGUAGAAUAAAAAAUUCCUUUCAUAUCGUUAUUGUACAAAAAGUAAAGAGUAUCCUAAAGAUUGUAUUCAUUGUAAUCAAGUAAUGCAAUCAUCUCUC,0.414
GGGCUGCAGAGCAGCGUCUAGUGGACAUUCCGAGGCCAGCUCUUGGGACUGUGUAGCCUCUGCCUCCCAGGAUGUUGUCUUUCAUGUGGGAAUUUUGACAGGAUUUCUAG,0.451
UCCCCUCUUGCCCCAACCCCCAGCACCCGGGCUCAGGGACCACAGCAAGGCACCUGCAGGUUGGGCCAUACUGGCCUCGCCUGGCCUGAGGUCUCGCUGAUGCUGGGCUG,0.2
CUCGACCCUGUUUCUUUCCAUUCAAGAACCGUCGGUCCCCUUGUAAUAAAGGUGGUAGAUUUCAUUAAGGUUUUAGAUCAAAACUUUGAAUAAAUCAAAAACGUUCAUUC,0.269
AUGUUAAUUGCUUCCCAGUUGGUUGACCUUAUAAGAAAACACUGUGUGGUAUUUUAAUGUGGUAAACAUGUGAAUGAAGGCCUGUGGCUCAGUUAAUCACUCCCACAACU,0.244
CAAGUGAUUGUGGACUCCUGGCUCAUCAACUCAUGCCCUCUUCCAUACCCUCAUGGCUUCACAGUCAAGGUCAGCAGGAAGCUCAUUGGUCACCUUCAUGGUGACCUCUC,0.262
CUCCCACCAAGAUCAGCCACCUCAGGCAUGGGGAGUAAUGAGACCAGAGCGCCUCUCUGGCACCACAGCAGGGAUCGUCAGGUAAUAAACACUCUUGAUUCCCUGAGGAA,0.34
UAAGGGGUAGAUGACGUGAAAUUUUGCAAGUCUUAAUUACAGCUGCAGAUGCAUGGGAUUCUGGAUUUUUUUGUUGCUUUUUAGUUUAAUGGGACUUUAAAAGUAAUUGA,2.14
UGAGAAACCUGUAUCUUUCUAUGCUGCUUUUAUAUCUGUAUGUAUUAGUGAUAUUUCUCUAGUAGUUAAAAAAAAAAAAAAAGAAAAAAAAAACUUUUUUGGUUGUCCUC,1.33
AAGAACUGCUUCAUAAAAUAUGUAUUAAGUAUUGUAUUUCCCUCUUAGCAGUUGAAUCCAAACCAGUUUCAUUUAGCUGGAAGUAGACAGGAAGGAGCUGCCUUAAGCAC,0.455
AGCCAGAAGCCCAGGACCUCCUUUUUGCACCAGCCUAUUUGAUAGUCCUAUAUUUUUAAAGCACACGGAAGGAGCACCAGCAGCUCUGAUAGUAUUGUGAAAGUUCUGAG,1.05

# Sample 4
# Target: Hepatocyte nuclear factor 3-beta, forkhead domain (FOXA2, Homo sapiens, UniProt Q9Y261, residues 142-269)
# Technique: protein-binding microarray
# Molecule type: double-stranded DNA, one strand shown
# Sample: in vitro
# Tested at: not given
# Setting: k-mer, scored over probes, only values ≥0.25
# Direction: higher = stronger binding
# Residues (chain): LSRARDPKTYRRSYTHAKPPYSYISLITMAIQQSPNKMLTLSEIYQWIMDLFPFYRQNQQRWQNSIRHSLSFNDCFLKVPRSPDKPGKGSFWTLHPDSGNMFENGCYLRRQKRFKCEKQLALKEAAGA
Strand,E-score
AACAATTA,0.318
ATGTAAAA,0.273
TAATTCAA,0.282
ATGTTTTC,0.256
ACTATGAA,0.281
TACGAATA,0.304
AATAGATA,0.253
ATACGTAT,0.264
ACAGTATA,0.343
AAACACTT,0.267
TATAGTAA,0.349
ATACAAGG,0.25
ATTATACA,0.318
ATACATAG,0.322
AAAAGTAT,0.251
AACAGACA,0.317
AAATAACA,0.349
TATTATGA,0.254
ACATAGAT,0.276
GATATTGA,0.253
ATATGATA,0.357
ATTGTCAA,0.31

# Sample 5
# Target: RING finger protein unkempt homolog, zinc fingers 1-6, SBP tag (UNK, Homo sapiens, UniProt Q9C0B0, residues 30-357)
# Chain of UniProt Q9C0B0 (30-357, looked up): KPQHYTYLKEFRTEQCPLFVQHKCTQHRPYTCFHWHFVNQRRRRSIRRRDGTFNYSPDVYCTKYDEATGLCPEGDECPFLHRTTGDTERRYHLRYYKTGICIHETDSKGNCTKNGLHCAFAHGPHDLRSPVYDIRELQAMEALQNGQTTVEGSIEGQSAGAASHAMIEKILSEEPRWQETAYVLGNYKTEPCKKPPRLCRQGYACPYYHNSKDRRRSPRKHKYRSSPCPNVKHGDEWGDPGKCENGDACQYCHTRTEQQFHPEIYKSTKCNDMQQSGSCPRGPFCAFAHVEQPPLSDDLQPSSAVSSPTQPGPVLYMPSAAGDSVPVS
# Technique: RNA Bind-n-Seq
# Molecule type: RNA
# Sample: in vitro
# Tested at: 100 nM
# Setting: RNA with constant flanks, vertebrate orthologous sites, ends assumed
# Baseline: input RNA pool
# Direction: higher = stronger binding
# Constant ends, left off below: GGGAGUUCUACAGUCCGACGAUC … CAACAGAGGAUUGAGCAUCA
Strand,bound/input enrichment [ratio]
GUGAGGGUCUACUGACCACUCACUAUUAUGUCUGGUAUCUGUAAACACUCUUUUUGUUCUUAGUCUUUUUCUUGUAUAAUUGAUGUCCUUUAAAAUUGCUAAUGUAUAACAGGGCUUAUA,0.883
GUCCCCUGGGCCGGGACAGACUUUUUUUUUAAAUGUCUUGAAACCUAAACUCUGUGCUUGUAGAAGACUGUAACCUUUUUGUCUUUUUUUUUUUUUUUUAAAAAACCAACAACCUCCACC,0.786
GAUUUGGACCUUGGAGCCAAACCAGGGAGCUAGCGAAAGUAAAGCAGACUUGUAAAAUUAUAGCCAUAUGCAGAUGCACAACAAUGGUACUACCACUAGAGCUGUGUUAAAGUAUUUAUA,0.487
CAGCUGACUCACUCAUUGGGAGAGCUGCACAUAUAGCAGUUCUUGAUUCAGAAAUAUUUUUAGAGAAAUUCUUUCUGGUUGCUGCCCUCAAAUAUUUCCAGUAGUAUAAAACAUUGUUAA,1.04
UUGUUUUGUACAGGGCAUUCUCUGUACAAAUUUGUUGUGGUUAUAAAACAAUUAGCAAAACAGCUUACAUUUGUAUUUAUUUUCUAUUCCAUACCUCUUCCCCAUGUAUUUUCUCCUCAA,0.655
UUACAGUCAUUGAUGGACUCUAUUUUUUUAUUAUUACUUGGACCUUGGUCGUUUUUAUACUAGCAAAAUGUCUUGUUUUGAUUUGUGUUUUUUUUUGGGGGGGGGAGGGCGUGAACUUGC,2.13
UCCCAGCACUCUGAUAAAAAGUGUGGACUGGUUGCUUGUAUUUUCCUUAUUCUUUUUAAUUAGUUUUAUUAUGUAUGCUACCAUUCGAACUGAGAGCAUUCGGUGGCUAAUUCCAGGACA,2
UGCUGUUAAUGCACUGUAUCCCAAGCCUUGUCCGAAUUUUGUGUAAUCUAGGAGAUUUUAUAGUUUUAUUUUAAUGAAUUCCAGAAUGAUCCAGAGCAUAGUCGGAAGUACGUUGUCUUU,2.84
AGUGGACGCAGCAUAGAAACAUCCAAGGUACCGACUGCAGCUUUAGAUACUUCAUUAGUAUGGAAGUCACAGUUCUCUAUGUGAGCAUACAUAUCUUUAAGUAAACUACAUCUUUAACUU,0.397
CACACUAUAUUGUGGCGUUUAGUCAACAUGGAAGUAGACCAGCUCUGCAGAUUUGAAAUUUAGAUUUUUUUUAAUUAUGUACUGGGGACAGGUUUUUGUCGCUUUACAUUGCUUCCUAGU,4.5
AAUGGCUCUUGCUCCACUGAGAAGAGUAGAAAUAAGUCCCCCAAAUAUAAAACUCCUAAAUAACUAUUAGAAAAAUUAAAAUGUUUAAAUUUUGUAAAUCACCUGAUACCACUACACACC,2.23

# For quick reference, copied from above (sample 2):
Substitution,normalised enrichment score
L13A,1.2
M1A,-0.0603
D10A,1.25
G11A,1.23
